Measured values collected from several papers.
Parts stem from different laboratories: compare values within a part only. Changes are numbered by the printed parent chain.

Block 1
Target: Hepatocyte nuclear factor 3-beta, forkhead domain (FOXA2, Homo sapiens, UniProt Q9Y261, residues 142-269)
Method: protein-binding microarray
Molecule type: double-stranded DNA, one strand shown
Sample: in vitro
Concentration: not given
Setting: k-mer, scored over probes, only values ≥0.25
Direction: higher = stronger binding
Residues (chain): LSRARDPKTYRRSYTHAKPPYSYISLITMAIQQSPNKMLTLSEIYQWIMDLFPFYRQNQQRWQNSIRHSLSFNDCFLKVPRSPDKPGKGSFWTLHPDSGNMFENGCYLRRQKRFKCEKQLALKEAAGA
Sequence | E-score
AAGTAATT | 0.301
ATAATCTA | 0.292
ACACACAA | 0.407
ATATATAC | 0.351
GACAATAC | 0.317
ACACGTAT | 0.258
AGTGTTTA | 0.317
ATTTAAAC | 0.267

Block 2
Target: ABI1, truncated, D143A, DHFR fusion (Arabidopsis thaliana)
Method: DHFR PCA, deep sequencing
Sample: yeast
Setting: methotrexate growth selection, single substitutions
Together with: (+)-ABA 58 µM
Baseline: wild-type fitted maximum
Direction: higher = stronger binding
Parent: PYL1, truncated, DHFR fusion (Arabidopsis thaliana); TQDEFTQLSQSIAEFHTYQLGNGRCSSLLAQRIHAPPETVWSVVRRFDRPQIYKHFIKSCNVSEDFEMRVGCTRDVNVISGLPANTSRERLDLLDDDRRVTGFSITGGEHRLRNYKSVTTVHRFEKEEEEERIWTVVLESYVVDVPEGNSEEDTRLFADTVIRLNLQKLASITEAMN; partner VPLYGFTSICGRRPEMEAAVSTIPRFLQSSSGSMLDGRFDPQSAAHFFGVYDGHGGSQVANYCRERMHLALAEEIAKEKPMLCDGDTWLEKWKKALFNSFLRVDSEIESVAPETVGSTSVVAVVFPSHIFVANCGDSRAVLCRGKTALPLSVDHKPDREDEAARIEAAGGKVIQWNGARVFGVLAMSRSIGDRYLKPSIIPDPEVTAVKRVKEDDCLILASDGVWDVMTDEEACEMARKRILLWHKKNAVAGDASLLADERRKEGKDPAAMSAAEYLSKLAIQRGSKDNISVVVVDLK
Change | relative binding score [%]
R49I | 54.6
V76M | 36.1
V78I | 90.2
E151T | 79.1
A158Y | 3.84
K58H | 77.7
N114Y | 18.3
F124P | 49.2

Block 3
Target: CCNE2, cyclin fold, Cln2 fusion (human)
Method: yeast growth competition, sequencing
Sample: yeast
Setting: weak parent motif
Baseline: not given
Direction: higher = stronger binding
Parent: ORC1 docking peptide (human); PRARKRLELGNLG; partner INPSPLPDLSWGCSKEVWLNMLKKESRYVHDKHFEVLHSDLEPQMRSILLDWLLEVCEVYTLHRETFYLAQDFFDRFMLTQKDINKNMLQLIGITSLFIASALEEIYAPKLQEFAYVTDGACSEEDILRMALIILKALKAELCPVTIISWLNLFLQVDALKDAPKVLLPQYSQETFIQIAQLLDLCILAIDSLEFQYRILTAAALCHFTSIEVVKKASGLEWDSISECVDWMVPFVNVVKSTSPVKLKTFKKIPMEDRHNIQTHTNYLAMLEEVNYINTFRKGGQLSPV
Change | normalised enrichment score
R2Q | 0.293
L7V | -0.648
L9P | -0.468
L9G | 0.596
A3Q | 1.63
L9W | 0.998
G13I | 1.09
P1C | 1.29
L9T | -0.219
A3P | 0.965
L12K | 0.785
G13L | 0.384
K5T | -0.0327

Other studies, line by line
Substance | target | assay | test system | conditions | how to read | endpoint | value
PhoQ, residues 284 288 289 292 302 303 AGGCYF | PhoP, residues 12 14 15 18 19 VQGLL (Escherichia coli, UniProt P23836) | Sort-seq, refers to: YFP reporter | E. coli | PhoQ-PhoP variant library, together with: 10 µM Mg2+ | baseline: high Mg2+ state, higher = stronger signaling | fold induction | 3.35

A few entries again (block 1):
Sequence | E-score
AGTGTTTA | 0.317
GACAATAC | 0.317
ATATATAC | 0.351
AAGTAATT | 0.301
ATTTAAAC | 0.267
